Assay results from different studies.
Parts stem from different laboratories: compare values within a part only. Substitutions count along the parent as printed.

Set 1 — method: RNA Bind-n-Seq; molecule type: RNA; medium: in vitro; concentration: 365 nM; relative to: no-protein control; reading: higher = stronger binding; endpoint: RBNS enrichment (R)
Target: RNA binding protein fox-1 homolog 2, RRM domain, GST-SBP tag (RBFOX2, Homo sapiens, UniProt O43251-10, residues 100-194)
Setting: natural RNA segment, single round, ends assumed
Residues (chain): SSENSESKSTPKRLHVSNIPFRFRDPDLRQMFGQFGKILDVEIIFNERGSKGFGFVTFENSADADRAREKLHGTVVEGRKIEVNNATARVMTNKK
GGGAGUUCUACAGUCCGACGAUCUAAUACACAUCUGCUUCAAAAUGAACAUAUUUCAUAAAAUUGGCAUCAAUUUUAAUGACGCUCCUGGUAUGGAACCUCAGAUAUACCCUAUUGGAGACAAUCCUUUGAUCUGGAAUUCUCGGGUGCCAA: 0.259
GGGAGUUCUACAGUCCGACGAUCCUCAGGGUCCAGCCAUGCCCCACCCUGGACUGAAGUUCUGCAAAGUCCUCCGAGGACCGGAACACGUUUCUGCGACCCGGGGCUCUGGCCAGCACUGUGUUCUGCGUUUGUGGAAUUCUCGGGUGCCAA: 0.221
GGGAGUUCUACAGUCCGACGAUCUUUAAAUUGUAAGAUUUUUACUGUAUAUUGAUGCAUAGUGUGAUUCAAUAAAUUGCUUGUAAUUUAAAAACUAUUUAAUAUUCAAAAUAAAUAUAGUUAUAUAUUUAUAAUGGAAUUCUCGGGUGCCAA: 3.24
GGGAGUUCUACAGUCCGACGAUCUGUGUGUGAUGAGUUGAGGGCUUUCCCACCUGCACGGGCCUUCACGGGCUCCACGCUUUUGCUGUCCUUGACACCUCUCGUUGGGGCUUCUGCAGGCAUCUCUGUCUGAGUGGAAUUCUCGGGUGCCAA: 0.7
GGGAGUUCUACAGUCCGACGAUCGCAGCCUAAUAUGAAGAUUGAUCCUUCAAUUUUUUUCCUGUUCAUUUUAGUGCUAAAAGGCUUUUAUAAAUUAUAAUAAGCCUCAGGAAGAAGCAAGCCUCUUACAUAUUUGGAAUUCUCGGGUGCCAA: 0.661
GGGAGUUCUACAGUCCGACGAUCUCAAAGUGAGGCAGUGUUAGGAAACCAUGGGCUGGGUGCAGUGCCUCUCGCCUGUAAUCGUAGCACUUUGGGAGGCCGAGGCGGGCACAUUGCUUGAGCUCAGGAGUUCAUGGAAUUCUCGGGUGCCAA: 1.03
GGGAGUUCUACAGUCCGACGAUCUUGUAGAAUUGUUAUAGAUUACCGUGCAUUAGCACAGAUUUUAAUUGUCAUGAUUGCAGACUACAGAUCUGCUUUUUGAAAUGAAAUUUAAACAUUAAAAAUGGAACUGUUGGAAUUCUCGGGUGCCAA: 0.591

Set 2 — method: protein-binding microarray; molecule type: double-stranded DNA, one strand shown; medium: in vitro; concentration: not given; reading: higher = stronger binding; endpoint: E-score
Target: Transcriptional repressor CTCF (CTCF, Homo sapiens, UniProt P49711, residues 1-727, full length assumed)
Sequence of UniProt P49711 (whole entry, looked up): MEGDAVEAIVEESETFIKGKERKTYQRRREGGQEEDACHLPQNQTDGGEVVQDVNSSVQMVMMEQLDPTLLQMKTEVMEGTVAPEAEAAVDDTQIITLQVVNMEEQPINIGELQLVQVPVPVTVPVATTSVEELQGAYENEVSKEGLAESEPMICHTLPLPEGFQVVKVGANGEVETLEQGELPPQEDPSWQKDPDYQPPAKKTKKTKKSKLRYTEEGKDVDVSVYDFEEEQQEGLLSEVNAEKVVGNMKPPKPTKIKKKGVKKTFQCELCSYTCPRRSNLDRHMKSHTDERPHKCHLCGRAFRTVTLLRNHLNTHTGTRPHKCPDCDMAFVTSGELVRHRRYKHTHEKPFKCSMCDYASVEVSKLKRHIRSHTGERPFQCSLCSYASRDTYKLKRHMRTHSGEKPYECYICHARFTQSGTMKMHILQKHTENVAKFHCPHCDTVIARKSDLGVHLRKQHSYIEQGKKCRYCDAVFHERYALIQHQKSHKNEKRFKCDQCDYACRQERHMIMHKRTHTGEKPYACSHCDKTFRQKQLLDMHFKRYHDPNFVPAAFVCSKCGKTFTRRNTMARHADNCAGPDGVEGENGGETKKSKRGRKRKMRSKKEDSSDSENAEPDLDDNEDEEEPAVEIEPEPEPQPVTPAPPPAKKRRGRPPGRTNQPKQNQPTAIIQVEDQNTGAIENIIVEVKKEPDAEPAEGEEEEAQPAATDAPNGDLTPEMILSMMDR
Setting: k-mer, scored over probes, only values ≥0.25
AGACAATA: 0.264
GATAATCA: 0.362
ACTGGTAA: 0.252
ATCAAATA: 0.269
ATATAGAA: 0.297
ATAAAACG: 0.356
ATGCAAAA: 0.295
CATAAAGA: 0.283
AATGTATA: 0.339
AATCGCGC: 0.251

Set 3 — method: DHFR PCA, deep sequencing; medium: yeast; added: (+)-ABA 17 µM; relative to: wild-type fitted maximum; reading: higher = stronger binding; endpoint: relative binding score
Target: ABI1, truncated, D143A, DHFR fusion (Arabidopsis thaliana)
Setting: methotrexate growth selection, single substitutions
Starting sequence: PYL1, truncated, DHFR fusion (Arabidopsis thaliana); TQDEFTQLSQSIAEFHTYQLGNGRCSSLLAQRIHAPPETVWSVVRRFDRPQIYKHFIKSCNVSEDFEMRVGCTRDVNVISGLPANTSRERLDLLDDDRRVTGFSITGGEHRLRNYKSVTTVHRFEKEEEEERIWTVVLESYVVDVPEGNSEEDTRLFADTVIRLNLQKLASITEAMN; partner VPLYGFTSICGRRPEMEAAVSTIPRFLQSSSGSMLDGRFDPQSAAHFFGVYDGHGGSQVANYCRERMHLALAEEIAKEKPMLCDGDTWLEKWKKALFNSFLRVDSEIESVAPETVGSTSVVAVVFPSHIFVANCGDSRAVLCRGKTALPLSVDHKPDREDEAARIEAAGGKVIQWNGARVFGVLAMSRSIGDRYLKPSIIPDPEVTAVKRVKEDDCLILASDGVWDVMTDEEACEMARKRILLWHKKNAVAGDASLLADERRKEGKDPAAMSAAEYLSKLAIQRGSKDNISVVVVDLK
V142D: 40.7%
N114M: 9.29%
R74W: -12.3%
L112T: 0.149%

Single results of other studies
PhoQ, residues 284 288 289 292 302 303 NLGVHL — fold induction (PhoP, residues 12 14 15 18 19 VHSCL (Escherichia coli, UniProt P23836); Sort-seq, measured: YFP reporter; E. coli; PhoQ-PhoP variant library, added: 10 µM Mg2+; relative to: high Mg2+ state, higher = stronger signaling): 0.0191

Some of these lines once more (set 2):
AGACAATA: 0.264
ATGCAAAA: 0.295
ATAAAACG: 0.356
AATCGCGC: 0.251
